Measured values collected from several papers.
Lines come from different studies, so protocols differ. Values joined by “and” are separate records of one study, mostly repeats; a detail may differ.

Molecule | tested on | test | test system | setting | how to read | measurement | value
CC(C)C(=O)OC[C@@]1(F)O[C@@H](n2cnc(-c3c[nH]c(=O)[nH]c3=O)c2)[C@H](OC(=O)C(C)C)[C@@H]1OC(=O)C(C)C | Zaire ebolavirus | viral replication, reporter virus | Huh-7 | 72 h |  | IC50 | 57.2 µM
quinacrine mustard | West Nile virus | viral replication, Rluc reporter replicon | Vero with WNV replicon | 50 µM, 24 h |  | inhibition | 99.8%
GPC fragment M9C (lymphocytic choriomeningitis virus) | H2-D1/B2m (Mus musculus) | flow cytometry | RMA-S |  |  | half-life | > 1 h
CCOc1nc(N)ncc1-c1cn([C@@H]2O[C@](F)(CO[P@@](=O)(N[C@@H](C)C(=O)OC(C)C)Oc3ccccc3)[C@@H](O)[C@H]2O)cn1 | Zaire ebolavirus | viral replication, reporter virus | Huh-7 | 72 h |  | IC50 | > 100 µM
IRQEEVQEL |  |  | peptide, tetramer-reactive CD8+ T cells, COVID-19 convalescent HLA-A*02:01 subjects |  |  | number of clonotypes | 2
GPC fragment A3V (lymphocytic choriomeningitis virus) | H2-D1/B2m (Mus musculus) | flow cytometry | RMA-S |  |  | half-life | < 1 h
COc1cc2ncnc(Nc3cccc(Cl)c3)c2cc1OC | Monkeypox virus | viral infection | replication-deficient | 0.412 µM | relative to: untreated | infection | 109% and 90.3% and 98.1%
EEFEPSTQYEY |  |  | peptide, tetramer-reactive CD8+ T cells, unexposed HLA-A*02:01 subjects |  |  | number of clonotypes | 1
CC(C)(C)NC(=S)N/N=C/C=N/NC(=S)NC(C)(C)C | VSVΔG pseudotyped with MERS-CoV S | pseudovirus infection |  | 10 µM |  | inhibition | 60%
